Measurements pooled from the literature.
Every numbered part comes from another study and shows a few of its results, in no order.
Chain of UniProt P08588 (whole entry, looked up): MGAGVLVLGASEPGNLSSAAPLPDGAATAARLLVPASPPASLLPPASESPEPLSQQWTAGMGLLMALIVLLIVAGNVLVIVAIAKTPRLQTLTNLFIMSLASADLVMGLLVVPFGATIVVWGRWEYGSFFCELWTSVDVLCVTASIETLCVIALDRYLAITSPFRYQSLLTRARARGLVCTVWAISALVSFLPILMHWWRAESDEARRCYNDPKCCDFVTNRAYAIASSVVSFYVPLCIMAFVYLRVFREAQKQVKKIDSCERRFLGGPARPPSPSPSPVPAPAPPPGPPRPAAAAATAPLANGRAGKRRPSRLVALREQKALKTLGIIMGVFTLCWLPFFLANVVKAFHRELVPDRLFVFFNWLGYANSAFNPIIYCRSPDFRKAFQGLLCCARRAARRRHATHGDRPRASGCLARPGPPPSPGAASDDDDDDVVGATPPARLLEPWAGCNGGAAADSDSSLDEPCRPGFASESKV
Chain of UniProt P31645 (whole entry, looked up): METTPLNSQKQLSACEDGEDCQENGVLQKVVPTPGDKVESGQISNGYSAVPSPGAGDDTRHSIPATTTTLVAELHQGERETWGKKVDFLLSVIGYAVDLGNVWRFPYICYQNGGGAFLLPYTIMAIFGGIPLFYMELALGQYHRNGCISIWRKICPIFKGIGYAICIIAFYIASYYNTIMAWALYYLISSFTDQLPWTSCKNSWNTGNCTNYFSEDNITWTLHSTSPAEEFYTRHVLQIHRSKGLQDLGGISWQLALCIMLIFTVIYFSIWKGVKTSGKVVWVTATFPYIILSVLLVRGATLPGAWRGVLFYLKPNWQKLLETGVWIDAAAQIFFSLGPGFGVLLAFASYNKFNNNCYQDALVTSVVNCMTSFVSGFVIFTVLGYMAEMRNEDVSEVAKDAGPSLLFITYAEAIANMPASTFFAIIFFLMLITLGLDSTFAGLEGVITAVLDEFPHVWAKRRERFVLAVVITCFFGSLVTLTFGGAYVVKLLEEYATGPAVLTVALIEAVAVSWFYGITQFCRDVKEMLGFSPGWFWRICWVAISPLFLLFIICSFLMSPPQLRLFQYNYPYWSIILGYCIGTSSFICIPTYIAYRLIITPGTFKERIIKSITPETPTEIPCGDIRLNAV
Chain of UniProt P23975 (whole entry, looked up): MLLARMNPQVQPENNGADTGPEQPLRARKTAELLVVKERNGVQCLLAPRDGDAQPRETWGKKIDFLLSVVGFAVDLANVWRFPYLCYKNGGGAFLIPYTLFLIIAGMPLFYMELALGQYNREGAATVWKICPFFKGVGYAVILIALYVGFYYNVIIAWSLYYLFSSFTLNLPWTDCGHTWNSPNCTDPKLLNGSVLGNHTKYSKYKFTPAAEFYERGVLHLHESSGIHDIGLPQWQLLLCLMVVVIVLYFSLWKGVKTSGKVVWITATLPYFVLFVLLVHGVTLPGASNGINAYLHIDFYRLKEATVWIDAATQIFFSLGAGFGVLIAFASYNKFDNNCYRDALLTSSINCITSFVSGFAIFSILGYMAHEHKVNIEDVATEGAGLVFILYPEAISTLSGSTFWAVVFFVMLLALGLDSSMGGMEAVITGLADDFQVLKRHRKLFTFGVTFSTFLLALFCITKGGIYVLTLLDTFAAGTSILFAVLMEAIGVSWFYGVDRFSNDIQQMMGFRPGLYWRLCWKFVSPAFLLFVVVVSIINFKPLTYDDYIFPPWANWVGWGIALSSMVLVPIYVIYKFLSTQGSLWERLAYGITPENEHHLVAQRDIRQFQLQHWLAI
Chain of UniProt Q9UKS7 (whole entry, looked up): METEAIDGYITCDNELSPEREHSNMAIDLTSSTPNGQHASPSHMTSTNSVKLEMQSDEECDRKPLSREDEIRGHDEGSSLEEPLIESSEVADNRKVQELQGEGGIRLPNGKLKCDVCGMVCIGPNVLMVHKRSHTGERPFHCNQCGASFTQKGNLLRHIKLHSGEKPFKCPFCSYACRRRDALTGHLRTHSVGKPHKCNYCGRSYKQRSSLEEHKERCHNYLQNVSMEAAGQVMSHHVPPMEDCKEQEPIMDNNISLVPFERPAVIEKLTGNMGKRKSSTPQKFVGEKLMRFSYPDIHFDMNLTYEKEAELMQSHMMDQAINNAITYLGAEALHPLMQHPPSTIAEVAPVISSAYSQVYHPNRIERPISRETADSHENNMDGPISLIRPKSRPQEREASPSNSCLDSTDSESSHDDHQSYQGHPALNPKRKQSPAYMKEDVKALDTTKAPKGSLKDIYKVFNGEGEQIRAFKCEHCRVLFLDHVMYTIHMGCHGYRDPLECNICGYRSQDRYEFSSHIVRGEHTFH
Chain of UniProt Q96SW2 (whole entry, looked up): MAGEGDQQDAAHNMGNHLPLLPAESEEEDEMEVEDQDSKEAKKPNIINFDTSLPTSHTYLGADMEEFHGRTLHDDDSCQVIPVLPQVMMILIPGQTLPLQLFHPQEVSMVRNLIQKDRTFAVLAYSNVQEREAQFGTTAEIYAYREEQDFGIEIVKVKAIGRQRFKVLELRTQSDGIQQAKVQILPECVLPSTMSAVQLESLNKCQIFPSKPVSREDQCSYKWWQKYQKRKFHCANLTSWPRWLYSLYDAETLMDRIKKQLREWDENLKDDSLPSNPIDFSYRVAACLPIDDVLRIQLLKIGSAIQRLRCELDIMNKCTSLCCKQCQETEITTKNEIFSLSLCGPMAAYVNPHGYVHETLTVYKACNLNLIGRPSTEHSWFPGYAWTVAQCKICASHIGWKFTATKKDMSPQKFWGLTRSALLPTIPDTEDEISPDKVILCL
Chain of UniProt P08908 (whole entry, looked up): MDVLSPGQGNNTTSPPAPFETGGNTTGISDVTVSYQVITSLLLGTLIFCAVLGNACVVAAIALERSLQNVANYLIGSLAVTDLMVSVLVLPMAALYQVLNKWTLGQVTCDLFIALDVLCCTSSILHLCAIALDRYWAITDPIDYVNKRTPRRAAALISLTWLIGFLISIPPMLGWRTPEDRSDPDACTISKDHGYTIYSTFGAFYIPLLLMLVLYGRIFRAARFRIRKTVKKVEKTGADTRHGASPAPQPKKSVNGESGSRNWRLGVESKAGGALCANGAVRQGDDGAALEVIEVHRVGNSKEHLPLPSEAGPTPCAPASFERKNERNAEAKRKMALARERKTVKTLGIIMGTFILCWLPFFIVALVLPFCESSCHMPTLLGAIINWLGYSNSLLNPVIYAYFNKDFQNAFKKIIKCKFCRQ
Chain of UniProt P41145 (whole entry, looked up): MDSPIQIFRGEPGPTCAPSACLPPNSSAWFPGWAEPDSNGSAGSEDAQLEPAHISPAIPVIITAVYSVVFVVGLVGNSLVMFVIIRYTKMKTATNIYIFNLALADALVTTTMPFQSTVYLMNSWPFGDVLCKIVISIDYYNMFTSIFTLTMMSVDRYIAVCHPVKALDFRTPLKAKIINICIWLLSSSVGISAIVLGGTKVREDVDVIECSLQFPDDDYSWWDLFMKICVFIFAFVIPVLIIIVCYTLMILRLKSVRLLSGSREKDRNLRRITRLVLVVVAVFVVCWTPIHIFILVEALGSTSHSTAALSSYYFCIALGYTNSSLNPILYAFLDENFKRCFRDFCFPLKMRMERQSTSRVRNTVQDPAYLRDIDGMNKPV
Chain of UniProt Q01959 (whole entry, looked up): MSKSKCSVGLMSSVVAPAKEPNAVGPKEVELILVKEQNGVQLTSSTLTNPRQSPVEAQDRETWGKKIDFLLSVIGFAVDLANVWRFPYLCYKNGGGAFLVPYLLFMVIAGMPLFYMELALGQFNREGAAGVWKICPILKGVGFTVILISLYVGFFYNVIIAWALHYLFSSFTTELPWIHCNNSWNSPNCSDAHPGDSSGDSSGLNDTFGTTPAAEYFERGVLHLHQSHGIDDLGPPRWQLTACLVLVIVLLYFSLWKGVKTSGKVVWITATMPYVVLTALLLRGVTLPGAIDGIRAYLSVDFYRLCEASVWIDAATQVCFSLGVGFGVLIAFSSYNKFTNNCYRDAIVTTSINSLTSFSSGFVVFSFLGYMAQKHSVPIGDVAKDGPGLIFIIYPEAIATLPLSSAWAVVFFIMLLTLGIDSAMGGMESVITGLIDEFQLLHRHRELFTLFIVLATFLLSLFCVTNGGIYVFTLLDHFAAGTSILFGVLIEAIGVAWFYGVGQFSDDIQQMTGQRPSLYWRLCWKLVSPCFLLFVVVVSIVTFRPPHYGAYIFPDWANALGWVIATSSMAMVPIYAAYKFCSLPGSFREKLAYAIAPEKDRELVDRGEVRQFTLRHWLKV
Chain of UniProt P35372 (whole entry, looked up): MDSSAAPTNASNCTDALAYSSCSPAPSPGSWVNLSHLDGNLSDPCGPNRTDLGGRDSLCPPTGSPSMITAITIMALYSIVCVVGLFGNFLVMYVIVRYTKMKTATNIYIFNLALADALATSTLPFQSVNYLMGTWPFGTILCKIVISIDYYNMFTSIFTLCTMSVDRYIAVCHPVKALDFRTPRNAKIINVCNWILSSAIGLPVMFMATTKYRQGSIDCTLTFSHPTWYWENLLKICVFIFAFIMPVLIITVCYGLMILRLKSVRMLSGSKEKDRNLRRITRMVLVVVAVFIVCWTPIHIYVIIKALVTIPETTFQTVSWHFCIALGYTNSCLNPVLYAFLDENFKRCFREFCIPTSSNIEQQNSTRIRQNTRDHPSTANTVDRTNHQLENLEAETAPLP
Chain of UniProt P21918 (whole entry, looked up): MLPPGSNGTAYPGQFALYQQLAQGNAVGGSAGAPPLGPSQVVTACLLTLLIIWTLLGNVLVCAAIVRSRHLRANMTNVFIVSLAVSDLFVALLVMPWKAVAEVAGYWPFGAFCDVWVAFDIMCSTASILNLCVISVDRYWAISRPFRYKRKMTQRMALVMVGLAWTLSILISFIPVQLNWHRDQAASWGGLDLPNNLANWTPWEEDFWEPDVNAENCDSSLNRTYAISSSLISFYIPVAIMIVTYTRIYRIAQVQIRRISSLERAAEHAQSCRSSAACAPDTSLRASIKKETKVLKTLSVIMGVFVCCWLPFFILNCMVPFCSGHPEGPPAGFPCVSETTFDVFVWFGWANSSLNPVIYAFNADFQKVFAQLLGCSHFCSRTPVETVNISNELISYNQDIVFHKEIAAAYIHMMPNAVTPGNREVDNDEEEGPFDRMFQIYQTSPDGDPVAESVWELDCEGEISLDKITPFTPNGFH

Block 1
Cell line: HaCaT
Tested at: 100 µM
Time: 36 h
Endpoint: viability
COc1ccc(C(=O)N2CCCC2=O)cc1: 73.6%
NC(=O)CN1CCCC1=O: 82.3%
OC(O)C(Cl)(Cl)Cl: 107%
CCOP(=S)(OCC)Oc1cc(C)nc(C(C)C)n1: 86.7%

Block 2
SMILES: N#CN1CC[C@@H](C(=O)Nc2nc3c(s2)CN(C(=O)CN=[N+]=[N-])CC3)C1
Tested at: 10 µM
Endpoint: inhibition
Muscarinic acetylcholine receptor M3 (CHRM3, Homo sapiens, UniProt P20309); binding, radioligand binding: -2.15%
Sodium-dependent dopamine transporter (SLC6A3, Homo sapiens, UniProt Q01959); binding, radioligand binding: 83%
Kappa-type opioid receptor (OPRK1, Homo sapiens, UniProt P41145); binding, radioligand binding: 13.3%
Sodium-dependent noradrenaline transporter (SLC6A2, Homo sapiens, UniProt P23975); binding, radioligand binding: 3.51%
Mu-type opioid receptor (OPRM1, Homo sapiens, UniProt P35372); binding, radioligand binding: 18.7%
Sodium-dependent serotonin transporter (SLC6A4, Homo sapiens, UniProt P31645); binding, radioligand binding: 7.66%
5-hydroxytryptamine receptor 1A (HTR1A, Homo sapiens, UniProt P08908); ligand displacement: 12.1%
D(1B) dopamine receptor (DRD5, Homo sapiens, UniProt P21918); binding, radioligand binding: -19.3%

Further values, each from its own experiment
CC(=O)O[C@@H]1C[C@@]2(C)[C@H](c3ccoc3)C[C@H]3O[C@]32[C@]2(C)C(=O)C(O)=C3C(C)(C)C(=O)C=C[C@]3(C)C12 (some centres unmarked)  remaining compound (human, microsomes or S9; 2 µM, 0.5 h): 65.1%
COc1ccc(-c2c(Nc3ccccn3)[nH]c3c(C4=CCCCC4)c(-c4ccccc4)nn3c2=O)cc1  grade 3 bilirubin increased incidence (patients with advanced malignancies; oral, dose not given, treatment-emergent adverse events): 10%
Brc1cnc2n[se]nc2c1  remaining compound (human, microsomes or S9; 2 µM, 0.5 h): 131%
O=C1CCC(N2Cc3c(ccc4c3OCC43CCN(Cc4ccccc4)C3)C2=O)C(=O)N1 (centres unmarked)  protein remaining (CRBN/Zinc finger protein Helios (Homo sapiens, UniProt Q96SW2+Q9UKS7); degrader, HiBiT; HEK293; 13.72 nM): 86.8%
CN1C[C@H](C(=O)N[C@]2(C)O[C@@]3(O)[C@@H]4CCCN4C(=O)[C@H](Cc4ccccc4)N3C2=O)C[C@@H]2c3cccc4[nH]cc(c34)C[C@H]21  efficacy (Beta-1 adrenergic receptor (ADRB1, Homo sapiens, UniProt P08588); agonist; cells): 64.8%

For quick reference, copied from above (block 2):
5-hydroxytryptamine receptor 1A (HTR1A, Homo sapiens, UniProt P08908); ligand displacement: 12.1%
D(1B) dopamine receptor (DRD5, Homo sapiens, UniProt P21918); binding, radioligand binding: -19.3%
